Published values of several laboratories.
Protocols differ between the studies behind these lines. “And” joins repeats or separate records; there may be more than shown. ± marks the error that the study gave.
UniProt Q16891, sequence (whole entry, looked up): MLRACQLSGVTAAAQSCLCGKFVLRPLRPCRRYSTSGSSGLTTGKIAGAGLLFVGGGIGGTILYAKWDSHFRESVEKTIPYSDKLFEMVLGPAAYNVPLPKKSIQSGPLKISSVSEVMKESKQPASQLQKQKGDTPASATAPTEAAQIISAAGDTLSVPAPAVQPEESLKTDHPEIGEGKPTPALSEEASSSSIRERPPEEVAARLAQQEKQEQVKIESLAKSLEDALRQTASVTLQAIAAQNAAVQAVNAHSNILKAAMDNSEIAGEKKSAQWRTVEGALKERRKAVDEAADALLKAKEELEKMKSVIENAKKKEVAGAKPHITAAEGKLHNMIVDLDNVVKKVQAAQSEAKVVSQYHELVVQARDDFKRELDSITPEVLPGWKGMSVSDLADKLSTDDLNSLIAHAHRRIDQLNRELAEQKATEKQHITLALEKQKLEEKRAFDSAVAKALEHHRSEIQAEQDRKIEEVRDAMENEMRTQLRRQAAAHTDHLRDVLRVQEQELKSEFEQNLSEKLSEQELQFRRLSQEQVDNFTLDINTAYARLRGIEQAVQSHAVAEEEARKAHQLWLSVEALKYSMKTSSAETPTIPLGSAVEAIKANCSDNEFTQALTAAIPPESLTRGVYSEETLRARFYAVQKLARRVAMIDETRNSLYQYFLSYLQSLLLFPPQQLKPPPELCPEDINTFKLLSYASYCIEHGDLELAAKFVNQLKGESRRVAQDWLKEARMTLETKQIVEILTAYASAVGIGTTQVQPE

Under freezing time, `CC[C@H](C)[C@H](NC(=O)[C@H](CCC(=O)O)NC(=O)[C@H](CCCNC(=N)N)NC(=O)[C@H](CCCNC(=N)N)NC(=O)[C@H](CCCNC(=N)N)NC(=O)[C@H](CCC(N)=O)NC(=O)[C@H](CCCNC(=N)N)NC(=O)[C@H](CCCNC(=N)N)NC(=O)[C@H](CCCCN)NC(=O)[C@H](CCCCN)NC(=O)[C@H](CCCNC(=N)N)NC(=O)CNC(=O)[C@H](Cc1ccc(O)cc1)NC(C)=O)C(=O)N[C@@H](CC(=O)O)C(=O)N[C@@H](Cc1c[nH]cn1)C(=O)N[C@@H](CC(=O)O)C(N)=O` is recorded as “increased” (fear conditioning; db/db mouse; dose not given, 8 weeks; relative to: scrambled peptide).
`C[C@H]1CN(c2n[nH]c3nc(N[C@H]4CC[C@H](NS(=O)(=O)CCC(F)(F)F)CC4)ncc23)CCO1` gave an IC50 of no less than 20 µM (MICOS complex subunit MIC60 (Homo sapiens, UniProt Q16891); biochemical).
Under immobility time, `OC(Cn1cncn1)(Cn1cncn1)c1ccc(F)cc1F` is recorded as “no effect” (forced swim test; CD-1 mice; dose not given, without ketamine; relative to: vehicle).
`N#CC(=Cc1ccccc1)c1cccnc1` — result for “β-elimination rate constant”: 0.011 min⁻¹ (pH 7.4).
With `COc1ccccc1N1CCN(CCN(C(=O)C2CCCCC2)c2ccccn2)CC1` the IC50 was 6.31 µM (Plasmodium falciparum; GB4).
For `CC[C@H](C)[C@@H]1NC(=O)[C@@H]2CCCN2C(=O)[C@H](CC(C)C)NC(=O)[C@H](CC(C)C)NC(=O)CNC(=O)[C@@H](NC(=O)[C@@H](NC(=O)[C@H](CC(=O)O)NC(=O)CNC(=O)[C@@H](NC(=O)[C@H](C)NC(=O)CNC(=O)[C@H](CCCCN)NC(=O)[C@H](CC(C)C)NC(=O)[C@H](CC(C)C)NC(=O)[C@H](CCCCN)NC(=O)CNC(=O)[C@@H](NC(=O)[C@@H](N)CC(C)C)C(C)C)C(C)C)C(C)C)CSSC[C@@H](C(=O)O)NC1=O`, “log2 fold change” read -1.28 (RNA-seq, item: Rilpl2; mouse, traumatic brain injury model, frontal cortex and hippocampus; dose not given; relative to: TBI alone).
`CS(=O)(=O)c1ccc(-c2nnc(/C=C/c3nnc(-c4ccc(C#N)cc4)o3)n2-c2ccccc2Cl)nc1`: “normalized enrichment score” -2.65 (RNA-seq GSEA, item: HALLMARK_MYC_TARGETS_V1; organoids, small intestinal, Apc Q1405X, mouse; dose not given, knockout organoids; relative to: DMSO, direction not given).
For `Cn1cc(Nc2nccc(-c3ccc4c(c3)CN(C3COC3)CC[C@H]4NC(=O)c3cn(C(C)(C)C)nn3)n2)cn1`, “pathway activation z-score” read 2.5 (item: Death Receptor Signaling; splenic B cells, Mus musculus; 30 mg/kg, added: IgD activation; relative to: vehicle, direction not given).
The urinary excretion of `C[C@]1(CO)Cc2ncn(-c3ccc(C#N)c(Cl)c3)c2C(=O)O1` is reported as 74.7 mmol (aldosterone synthesis, inhibitor, item: cortisol; healthy Japanese adults, urine; 80 mg, 0-24 h at steady state, multiple rising dose).
`C[C@@H](NC(=O)c1ccc(C#Cc2cccc(F)c2)cn1)C(C)(C)O` — result for “population spike inter-event interval”: 51.7 ± 7.8% (rat hippocampal CA3 slices; 10 µM, 10 min, spontaneous epileptiform activity; relative to: baseline).
The body weight of `c1csc(-c2ccc(-c3cccs3)s2)c1` is reported as 50.3 ± 6.79 g (C57BL/6J mouse, diet-induced obese; intraperitoneal, 5 mg/kg daily, 336 h).
`O=C(CCCN1CC=C(n2c(=O)[nH]c3ccccc32)CC1)c1ccc(F)cc1` has an IC50 of 10 µM (Plasmodium falciparum; Dd2).
`C[C@H]1O[C@@H](O[C@H]2CC[C@@]3(C)[C@@H](CC[C@]4(C)[C@@H]3C=C[C@]35OC[C@@]6(CCC(C)(C)C[C@H]63)[C@@H](O)C[C@]54C)[C@]2(C)CO)[C@H](O)[C@@H](O[C@@H]2O[C@H](CO)[C@@H](O)[C@H](O)[C@H]2O)[C@H]1O` has a mRNA level of 2.29 and 1.1 and 2.76 and 1.16 (item: SCD-1; ethanol-fed mice, hepatic SIRT1 knockdown (AAV8-TBG-SIRT1), liver; dose not given, high dose, unit not given; relative to: AAV8-TBG-Null ethanol group).

Repeated from above:
`CS(=O)(=O)c1ccc(-c2nnc(/C=C/c3nnc(-c4ccc(C#N)cc4)o3)n2-c2ccccc2Cl)nc1`: “normalized enrichment score” -2.65 (RNA-seq GSEA, item: HALLMARK_MYC_TARGETS_V1; organoids, small intestinal, Apc Q1405X, mouse; dose not given, knockout organoids; relative to: DMSO, direction not given).
